Published values collected from several papers.
Compare with care: the assays were run in different laboratories. ± gives the spread as reported.
Target: Tyrosine-protein kinase TXK (TXK, Homo sapiens, UniProt P42681)
Sequence (P42681 1-527, as in one of the studies): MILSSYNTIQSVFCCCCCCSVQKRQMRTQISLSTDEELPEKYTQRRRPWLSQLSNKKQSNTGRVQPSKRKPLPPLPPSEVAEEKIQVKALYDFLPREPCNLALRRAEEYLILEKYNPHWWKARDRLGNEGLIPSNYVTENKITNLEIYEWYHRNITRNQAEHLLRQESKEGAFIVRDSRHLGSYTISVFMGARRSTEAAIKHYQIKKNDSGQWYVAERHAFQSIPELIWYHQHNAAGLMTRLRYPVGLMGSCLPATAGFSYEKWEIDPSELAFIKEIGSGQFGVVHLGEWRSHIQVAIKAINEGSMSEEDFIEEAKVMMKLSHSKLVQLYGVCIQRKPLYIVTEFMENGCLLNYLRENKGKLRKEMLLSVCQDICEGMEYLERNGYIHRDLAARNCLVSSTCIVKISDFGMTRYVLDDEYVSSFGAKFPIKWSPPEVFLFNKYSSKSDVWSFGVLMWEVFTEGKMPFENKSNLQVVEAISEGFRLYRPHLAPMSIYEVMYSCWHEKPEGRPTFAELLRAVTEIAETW

The remaining activity of `C=CC(=O)N1CCC[C@@H](n2nc(-c3ccc(Oc4ccccc4)cc3)c3c(N)ncnc32)C1` is reported as 105% (1 µM).
`C#Cc1cc(-c2cc(Nc3nc(N[C@@H](C)c4ccc(F)cn4)ncc3Cl)n[nH]2)ccc1C=O` gave an inhibition of 10.5% (enzyme activity, inhibitor; 0.2 µM).
For `COc1ccc(F)cc1C(=O)NCc1ccc(-c2nn([C@@H](C)C(F)(F)F)c(N)c2C(N)=O)cc1`, the remaining activity was 19.6 ± 0.6% (kinase activity, inhibitor, HotSpot radiometric; 1000 nM, with: ATP at Km).
For `C=CC(=O)N1CCCN(C(=O)c2cc(Sc3cnc(NC(=O)C4CC4)s3)c(C)cc2OC)C[C@H]1C`, the remaining activity was 70% (kinase activity, inhibitor; concentration not given; relative to: control).
`CNc1ncc2c(/C=C/C(=O)N3CCC(OC)CC3)nn(Cc3cccc(C(F)(F)F)c3)c2n1` gave a remaining activity of 109% (kinase activity, inhibitor; 1 µM; relative to: untreated control).
`COc1cc(F)ccc1-c1ncnc(Nc2cccc(C[S@](C)(=N)=O)c2)n1` gave a remaining activity of 67% (kinase activity; 10 µM, with: 10 µM ATP).
`O=C(NC1CCC1)c1ccc2nc(-c3cccc(NS(=O)(=O)NCCN4CCCCC4)c3)cn2c1` gave a remaining activity of 78% (enzyme activity; 10 µM).
`C=CC(=O)N1CCC[C@@H](n2nc(-c3ccc(Oc4ccccc4)cc3)c3c(N)ncnc32)C1` gave a remaining activity of -0.1 ± 0.1% (kinase activity, inhibitor, HotSpot radiometric; 100 nM, with: ATP 10 µM).
`Cc1cc(Nc2cc(N3CCN(C)CC3)nc(Sc3ccc(NC(=O)C4CC4)cc3)n2)[nH]n1` gave a remaining activity of 89% (kinase activity, KinaseProfiler; 0.03 µM, species human; relative to: control).

Repeated from above:
`O=C(NC1CCC1)c1ccc2nc(-c3cccc(NS(=O)(=O)NCCN4CCCCC4)c3)cn2c1` gave a remaining activity of 78% (enzyme activity; 10 µM).
